Assay results pooled from the literature.
Compare with care: the assays were run in different laboratories.

SMILES | technique | species | sample | tested at | pH | notes | hepatic clearance
Cc1nc2ccc(OCc3ccc(C(F)(F)F)cc3)cc2[nH]1 | – | – | human liver S9 | 1 µM | pH 7.4 | – | 5.67 mL/min/kg
Cl.N=C(CC(O)c1cc2c(F)cc(F)cc2c2cc(C(F)(F)F)ccc12)Nc1ccc(F)c(F)c1 (stereo not shown) | – | – | human liver microsomes | 1 µM | pH 7.4 | – | 1.04 L/min
COc1cc(-c2cc(C(C)=O)n3ccccc23)c(OC)cc1Cn1ccnc1 | – | – | human liver microsomes | 1 µM | pH 7.4 | – | 8.9 mL/min/kg
c1ccc2ccccc2c1 | – | developing zebrafish | liver | – | – | – | 55.5 mL/min/kg
O=C(NCCN1CCCC1=O)c1ccc(C2CCCCC2)cc1 | liver microsome stability | – | rat liver microsomes | 1 µM | – | – | 49 mL/min/kg
Cc1cccc2c1ccc1cc(C(C)C)ccc12 | – | developing zebrafish | liver | – | – | – | 686 mL/min/kg
COCCC(=O)Nc1ccc([C@H]2[C@@H](F)[C@@H](F)C[C@@H](F)[C@H]2F)cc1 | hepatocyte stability | – | cryopreserved rat hepatocytes | 1 µM | – | – | 14 mL/min/kg
O=C1CC[C@H](N2Cc3cc(N4CCN(CC5CCN(c6ccc([C@@H]7c8ccc(O)cc8CC[C@@H]7c7ccccc7)cc6)CC5)CC4)ccc3C2=O)C(=O)N1 | – | – | cryopreserved human hepatocytes | 1 µM | – | corrected for fu | 10.2 mL/min/kg
CN1CCN(C(=O)c2ccc([C@H]3[C@@H](F)[C@@H](F)C[C@@H](F)[C@H]3F)cc2)CC1=O | liver microsome stability | – | rat liver microsomes | 1 µM | – | – | 8.2 mL/min/kg
O=C(c1ccc(F)cc1)C1CCN(CCn2c(=O)[nH]c3ccccc3c2=O)CC1 | – | – | rat liver microsomes | – | – | – | 39.6 mL/min/kg

Some of these lines once more:
SMILES | technique | species | sample | tested at | pH | notes | hepatic clearance
Cc1cccc2c1ccc1cc(C(C)C)ccc12 | – | developing zebrafish | liver | – | – | – | 686 mL/min/kg
